Experimental data of several laboratories.
Numbered parts are unrelated; each lists some results of a single study. Values joined by “and” are separate records of one study, mostly repeats; a detail may differ.
UniProt Q9UPZ9, sequence (whole entry, looked up): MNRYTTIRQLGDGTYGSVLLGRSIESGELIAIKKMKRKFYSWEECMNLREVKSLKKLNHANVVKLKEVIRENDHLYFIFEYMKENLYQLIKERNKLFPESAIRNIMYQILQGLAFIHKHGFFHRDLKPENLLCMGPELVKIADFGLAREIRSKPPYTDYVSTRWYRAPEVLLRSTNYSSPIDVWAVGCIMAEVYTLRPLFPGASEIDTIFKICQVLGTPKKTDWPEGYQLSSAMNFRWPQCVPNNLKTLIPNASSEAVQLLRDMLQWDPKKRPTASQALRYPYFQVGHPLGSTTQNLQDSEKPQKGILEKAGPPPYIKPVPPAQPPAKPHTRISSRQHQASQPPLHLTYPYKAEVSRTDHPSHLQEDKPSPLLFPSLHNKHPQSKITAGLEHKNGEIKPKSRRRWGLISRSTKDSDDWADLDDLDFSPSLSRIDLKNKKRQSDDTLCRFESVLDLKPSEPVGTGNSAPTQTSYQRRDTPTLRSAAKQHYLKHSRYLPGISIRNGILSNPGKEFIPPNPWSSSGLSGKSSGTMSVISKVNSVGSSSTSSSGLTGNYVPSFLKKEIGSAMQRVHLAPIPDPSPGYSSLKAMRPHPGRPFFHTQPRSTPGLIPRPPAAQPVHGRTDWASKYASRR
UniProt Q04759, sequence (whole entry, looked up): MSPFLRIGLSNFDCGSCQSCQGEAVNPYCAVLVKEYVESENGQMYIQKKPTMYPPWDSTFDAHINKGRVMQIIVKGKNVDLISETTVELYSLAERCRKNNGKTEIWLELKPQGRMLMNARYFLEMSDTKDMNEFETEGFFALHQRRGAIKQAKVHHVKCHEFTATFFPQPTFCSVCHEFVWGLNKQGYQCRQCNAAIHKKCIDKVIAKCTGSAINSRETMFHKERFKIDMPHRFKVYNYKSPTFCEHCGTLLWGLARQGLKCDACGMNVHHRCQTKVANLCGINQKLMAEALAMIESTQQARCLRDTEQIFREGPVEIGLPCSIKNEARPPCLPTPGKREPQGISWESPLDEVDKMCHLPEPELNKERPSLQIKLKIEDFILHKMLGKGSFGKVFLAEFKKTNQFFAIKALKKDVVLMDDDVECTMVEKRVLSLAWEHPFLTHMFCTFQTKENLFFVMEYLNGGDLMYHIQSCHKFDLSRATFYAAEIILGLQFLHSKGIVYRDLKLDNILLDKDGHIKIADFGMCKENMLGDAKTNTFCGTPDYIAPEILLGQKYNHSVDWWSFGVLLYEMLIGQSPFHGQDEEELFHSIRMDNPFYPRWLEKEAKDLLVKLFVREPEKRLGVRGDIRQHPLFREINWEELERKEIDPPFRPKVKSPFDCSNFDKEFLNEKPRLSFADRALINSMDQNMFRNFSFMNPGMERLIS
UniProt P15056, sequence (whole entry, unmodified, looked up): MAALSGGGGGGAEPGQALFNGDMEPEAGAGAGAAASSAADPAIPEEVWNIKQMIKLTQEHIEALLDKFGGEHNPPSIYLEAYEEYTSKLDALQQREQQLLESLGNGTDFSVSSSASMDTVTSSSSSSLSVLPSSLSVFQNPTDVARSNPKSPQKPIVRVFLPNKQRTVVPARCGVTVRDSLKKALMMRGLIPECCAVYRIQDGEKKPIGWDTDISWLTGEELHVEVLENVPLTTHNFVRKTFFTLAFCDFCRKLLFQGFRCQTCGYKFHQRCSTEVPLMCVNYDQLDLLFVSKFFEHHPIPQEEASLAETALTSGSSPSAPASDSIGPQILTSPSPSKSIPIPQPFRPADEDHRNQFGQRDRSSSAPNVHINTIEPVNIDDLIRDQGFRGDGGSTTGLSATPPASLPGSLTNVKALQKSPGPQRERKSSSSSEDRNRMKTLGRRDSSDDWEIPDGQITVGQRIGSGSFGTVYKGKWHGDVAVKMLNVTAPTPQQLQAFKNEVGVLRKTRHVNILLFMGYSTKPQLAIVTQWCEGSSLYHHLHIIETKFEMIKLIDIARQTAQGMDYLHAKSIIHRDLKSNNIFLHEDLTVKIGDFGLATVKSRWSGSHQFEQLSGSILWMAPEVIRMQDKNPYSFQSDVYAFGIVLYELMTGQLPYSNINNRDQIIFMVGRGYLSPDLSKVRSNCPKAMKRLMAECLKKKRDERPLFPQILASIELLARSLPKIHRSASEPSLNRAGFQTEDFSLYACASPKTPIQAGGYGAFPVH
UniProt P78368, sequence (whole entry, looked up): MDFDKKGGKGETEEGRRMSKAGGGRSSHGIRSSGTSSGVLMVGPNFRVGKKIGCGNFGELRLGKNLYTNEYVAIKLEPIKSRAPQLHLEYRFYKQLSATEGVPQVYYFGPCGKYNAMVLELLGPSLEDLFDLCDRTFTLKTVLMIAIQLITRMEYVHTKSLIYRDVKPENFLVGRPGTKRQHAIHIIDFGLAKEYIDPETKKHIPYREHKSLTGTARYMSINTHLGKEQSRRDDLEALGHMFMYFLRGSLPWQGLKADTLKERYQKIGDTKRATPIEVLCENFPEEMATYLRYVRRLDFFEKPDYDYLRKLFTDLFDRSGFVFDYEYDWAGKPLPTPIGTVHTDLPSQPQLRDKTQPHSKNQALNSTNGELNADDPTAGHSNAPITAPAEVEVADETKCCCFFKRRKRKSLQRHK
UniProt Q06418, sequence (whole entry, looked up): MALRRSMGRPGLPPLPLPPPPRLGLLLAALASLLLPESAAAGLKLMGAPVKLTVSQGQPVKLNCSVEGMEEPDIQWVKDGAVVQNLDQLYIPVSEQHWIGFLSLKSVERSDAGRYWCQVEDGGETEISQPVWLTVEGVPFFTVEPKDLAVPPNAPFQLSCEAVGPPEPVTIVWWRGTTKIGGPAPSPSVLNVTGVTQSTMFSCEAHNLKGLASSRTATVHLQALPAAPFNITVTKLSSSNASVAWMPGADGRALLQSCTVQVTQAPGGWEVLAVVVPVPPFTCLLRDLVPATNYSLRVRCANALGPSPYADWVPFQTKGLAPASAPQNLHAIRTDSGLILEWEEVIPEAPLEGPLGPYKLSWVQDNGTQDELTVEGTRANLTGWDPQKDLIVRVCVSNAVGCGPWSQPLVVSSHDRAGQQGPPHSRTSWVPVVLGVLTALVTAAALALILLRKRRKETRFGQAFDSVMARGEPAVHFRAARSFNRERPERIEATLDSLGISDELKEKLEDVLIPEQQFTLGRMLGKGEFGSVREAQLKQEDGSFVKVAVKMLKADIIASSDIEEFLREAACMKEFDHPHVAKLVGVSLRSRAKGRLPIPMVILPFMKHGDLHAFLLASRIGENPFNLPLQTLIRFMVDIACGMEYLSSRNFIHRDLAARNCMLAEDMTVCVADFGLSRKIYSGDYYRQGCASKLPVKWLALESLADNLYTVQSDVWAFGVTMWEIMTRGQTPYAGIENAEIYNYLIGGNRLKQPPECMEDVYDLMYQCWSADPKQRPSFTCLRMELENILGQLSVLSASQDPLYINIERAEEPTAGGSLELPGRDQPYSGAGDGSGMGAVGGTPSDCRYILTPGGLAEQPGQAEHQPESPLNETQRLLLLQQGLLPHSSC
UniProt P36894, sequence (whole entry, looked up): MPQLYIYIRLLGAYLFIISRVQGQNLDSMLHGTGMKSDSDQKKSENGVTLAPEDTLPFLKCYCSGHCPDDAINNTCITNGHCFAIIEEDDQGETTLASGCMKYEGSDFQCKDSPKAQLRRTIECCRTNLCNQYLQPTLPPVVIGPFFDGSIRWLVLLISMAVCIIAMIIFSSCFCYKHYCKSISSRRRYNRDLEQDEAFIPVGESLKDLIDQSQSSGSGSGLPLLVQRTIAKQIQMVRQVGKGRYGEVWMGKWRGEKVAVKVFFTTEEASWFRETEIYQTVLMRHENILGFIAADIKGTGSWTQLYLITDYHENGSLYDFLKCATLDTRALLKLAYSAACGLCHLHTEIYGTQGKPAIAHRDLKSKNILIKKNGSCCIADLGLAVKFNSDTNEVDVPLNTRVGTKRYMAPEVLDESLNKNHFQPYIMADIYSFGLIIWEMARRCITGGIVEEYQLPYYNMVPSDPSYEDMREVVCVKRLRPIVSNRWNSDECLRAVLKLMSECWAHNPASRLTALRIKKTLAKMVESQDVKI
UniProt Q99640, sequence (whole entry, looked up): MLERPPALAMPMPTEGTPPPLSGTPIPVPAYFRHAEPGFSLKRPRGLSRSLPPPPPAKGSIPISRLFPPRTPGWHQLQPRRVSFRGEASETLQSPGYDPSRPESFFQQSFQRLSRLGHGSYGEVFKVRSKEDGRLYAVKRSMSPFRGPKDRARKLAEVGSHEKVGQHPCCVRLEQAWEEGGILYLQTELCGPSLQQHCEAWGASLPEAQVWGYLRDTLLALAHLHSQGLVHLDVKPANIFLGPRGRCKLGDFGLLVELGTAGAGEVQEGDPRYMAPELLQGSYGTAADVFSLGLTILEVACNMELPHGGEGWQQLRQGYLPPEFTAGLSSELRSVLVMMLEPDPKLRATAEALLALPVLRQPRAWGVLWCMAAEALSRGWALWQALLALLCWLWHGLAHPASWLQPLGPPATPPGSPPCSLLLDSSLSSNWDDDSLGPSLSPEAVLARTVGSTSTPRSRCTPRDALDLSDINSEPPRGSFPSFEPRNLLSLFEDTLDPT

Sample 1 — species: C57BL/6 CES1-/- mice, EL4 tumour; sample: EL4 tumour; route: subcutaneous; dose: 0.3 mg/kg/day DON equivalent; time: 5 days
SMILES: CC(=O)N[C@@H](Cc1c[nH]c2ccccc12)C(=O)N[C@@H](CCC(=O)C=[N+]=[N-])C(=O)OC(C)C
test | setting | scale | metabolite peak intensity
UPLC-MS/MS metabolomics, measured: gamma-glutamyltyrosine | normalised to tissue mass | – | 711000 a.u. and 901000 a.u. and 244000 a.u. and 745000 a.u. and 529000 a.u. and 500000 a.u.
LC-MS/MS metabolomics, measured: 3-methylcytidine | normalised to tissue mass | higher = more metabolite | 1.23e+06 a.u. and 950000 a.u. and 1.68e+06 a.u. and 1.46e+06 a.u. and 860000 a.u. and 946000 a.u.
UPLC-MS/MS metabolomics, measured: N-acetylglutamate | normalised to tissue mass | higher = more metabolite | 7.08e+07 a.u. and 6.73e+07 a.u. and 5.15e+07 a.u. and 4.6e+07 a.u. and 5.45e+07 a.u. and 5.93e+07 a.u.
LC-MS/MS metabolomics, measured: 2,3-dihydroxy-2-methylbutyrate | normalised to tissue mass | higher = more metabolite | 630000 a.u. and 592000 a.u. and 1.95e+06 a.u. and 1.35e+06 a.u. and 2.59e+06 a.u. and 1.56e+06 a.u.
LC-MS/MS metabolomics, measured: 2-hydroxy-3-methylvalerate | normalised to tissue mass | higher = more metabolite | 33600 a.u. and 74200 a.u. and 85900 a.u. and 95100 a.u. and 31800 a.u. and 103000 a.u.
LC-MS/MS metabolomics, measured: phenyllactate | – | higher = more metabolite | 111000 a.u. and 235000 a.u. and 67000 a.u. and 81000 a.u. and 101000 a.u. and 119000 a.u.
LC-MS/MS metabolomics, measured: 3'-dephospho-CoA-glutathione | normalised to tissue mass | higher = more metabolite | 69700 a.u. and 72900 a.u. and 110000 a.u. and 88300 a.u. and 141000 a.u. and 129000 a.u.
UPLC-MS/MS, measured: 5,6-dihydrouridine | – | – | 88400 a.u. and 64400 a.u. and 70100 a.u. and 72600 a.u. and 76400 a.u. and 108000 a.u.

Sample 2 — method: competition with immobilised ligand; tested at: 1 µM
Compound: Cn1cncc1[C@](O)(COc1ccc(C#N)cc1-c1ccc(OC(F)(F)F)cc1)c1ccc(C#N)cc1
target | test | remaining binding
Bone morphogenetic protein receptor type-1A (BMPR1A, Homo sapiens, UniProt P36894) | binding | 91%
Membrane-associated tyrosine- and threonine-specific cdc2-inhibitory kinase (PKMYT1, Homo sapiens, UniProt Q99640) | cell-free assay | 100%
Leucine-rich repeat serine/threonine-protein kinase 2 (LRRK2, Homo sapiens, UniProt Q5S007, G2019S) | cell-free assay | 92%
cAMP-dependent protein kinase catalytic subunit alpha (PRKACA, Homo sapiens, UniProt P17612) | cell-free assay | 81%
Tyrosine-protein kinase receptor TYRO3 (TYRO3, Homo sapiens, UniProt Q06418) | cell-free assay | 61%
Casein kinase I isoform gamma-2 (CSNK1G2, Homo sapiens, UniProt P78368) | cell-free assay | 78%
Cyclin-dependent kinase 18 (CDK18, Homo sapiens, UniProt Q07002) | cell-free assay | 90%
Tyrosine-protein kinase ABL1, phosphorylated (ABL1, Homo sapiens, UniProt P00519, H396P) | cell-free assay | 100%
Serine/threonine-protein kinase ICK (CILK1, Homo sapiens, UniProt Q9UPZ9) | binding | 100%
Protein kinase C theta type (PRKCQ, Homo sapiens, UniProt Q04759) | cell-free assay | 79%
Hepatocyte growth factor receptor (MET, Homo sapiens, UniProt P08581) | cell-free assay | 74%
Proto-oncogene tyrosine-protein kinase receptor Ret (RET, Homo sapiens, UniProt P07949, V804M) | cell-free assay | 99%
Serine/threonine-protein kinase B-raf (BRAF, Homo sapiens, UniProt P15056, V600E) | cell-free assay | 82%

Sample 3 — observed: enzyme activity; mode: inhibitor; tested at: 10 µM
Target: Calcium/calmodulin-dependent protein kinase type II subunit alpha (CAMK2A, Homo sapiens, UniProt Q9UQM7)
UniProt Q9UQM7, sequence (whole entry, looked up): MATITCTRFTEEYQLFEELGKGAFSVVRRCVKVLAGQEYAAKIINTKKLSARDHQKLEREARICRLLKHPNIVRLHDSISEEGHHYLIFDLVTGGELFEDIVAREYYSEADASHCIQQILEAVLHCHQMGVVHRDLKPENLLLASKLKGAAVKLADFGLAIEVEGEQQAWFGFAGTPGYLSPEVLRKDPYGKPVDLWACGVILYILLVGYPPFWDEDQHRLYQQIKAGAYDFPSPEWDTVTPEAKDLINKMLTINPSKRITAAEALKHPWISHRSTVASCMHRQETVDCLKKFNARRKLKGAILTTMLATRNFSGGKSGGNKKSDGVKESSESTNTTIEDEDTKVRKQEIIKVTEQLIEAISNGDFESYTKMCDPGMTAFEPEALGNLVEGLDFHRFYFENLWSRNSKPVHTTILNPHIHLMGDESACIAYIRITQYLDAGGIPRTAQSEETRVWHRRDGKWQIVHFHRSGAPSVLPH
SMILES | inhibition [%]
CC1=C(C(=O)OC(C)C)C(c2cccc([N+](=O)[O-])c2)C(C(=O)OC2CN(C(c3ccccc3)c3ccccc3)C2)=C(N)N1 (stereo not drawn) | -7
CC1(C)CC[C@]2(C(=O)O)CC[C@]3(C)C(=CC[C@@H]4[C@@]5(C)CC[C@H](O)[C@@](C)(CO)[C@@H]5CC[C@]43C)[C@@H]2C1 | -52
CC1(C)CC[C@]2(C(=O)O)[C@H](O)C[C@]3(C)C(=CC[C@@H]4[C@@]5(C)C[C@H](O)[C@H](O)C(CO)(CO)[C@@H]5CC[C@]43C)[C@@H]2C1 | -30
CC(C)=C[C@H]1C[C@](C)(O)[C@@H]2[C@H]3CC[C@@H]4[C@@]5(C)CC[C@H](O[C@@H]6OC[C@H](O)[C@H](O[C@@H]7O[C@H](CO)[C@@H](O)[C@H](O)[C@H]7O[C@@H]7OC[C@@H](O)[C@H](O)[C@H]7O)[C@H]6O[C@@H]6O[C@@H](C)[C@H](O)[C@@H](O)[C@H]6O)C(C)(C)[C@@H]5CC[C@@]4(C)[C@@]34CO[C@@]2(C4)O1 | -11
C=C1C[C@@]23CC[C@H]4[C@@](C)(CCC[C@@]4(C)C(=O)O)[C@@H]2CC[C@]1(O[C@@H]1O[C@H](CO)[C@@H](O)[C@H](O[C@@H]2O[C@H](CO)[C@@H](O)[C@H](O)[C@H]2O)[C@H]1O[C@@H]1O[C@H](CO)[C@@H](O)[C@H](O)[C@H]1O)C3 | -18
CCC/C=C1\OC(=O)C2=C1CC[C@H]1[C@H]3C=C4C(=O)O/C(=C\CCC)[C@@]4(CC3)[C@@H]21 | -17
COC(=O)c1c(O)cc(O)cc1O | -12
CCCCCCC(=O)OCC(COC(=O)CCCCCC)OC(=O)CCCCCC | 0

Other studies, line by line
SMILES | system | setting | quantity | result
COc1ccc(-c2c(Nc3ccccn3)[nH]c3c(C4=CCCCC4)c(-c4ccccc4)nn3c2=O)cc1 | human, plasma | oral, 200 mg once daily | Tmax | 0 h

For quick reference, copied from above (sample 3):
SMILES | inhibition [%]
CC1(C)CC[C@]2(C(=O)O)CC[C@]3(C)C(=CC[C@@H]4[C@@]5(C)CC[C@H](O)[C@@](C)(CO)[C@@H]5CC[C@]43C)[C@@H]2C1 | -52
COC(=O)c1c(O)cc(O)cc1O | -12
CC1=C(C(=O)OC(C)C)C(c2cccc([N+](=O)[O-])c2)C(C(=O)OC2CN(C(c3ccccc3)c3ccccc3)C2)=C(N)N1 (stereo not drawn) | -7
CC(C)=C[C@H]1C[C@](C)(O)[C@@H]2[C@H]3CC[C@@H]4[C@@]5(C)CC[C@H](O[C@@H]6OC[C@H](O)[C@H](O[C@@H]7O[C@H](CO)[C@@H](O)[C@H](O)[C@H]7O[C@@H]7OC[C@@H](O)[C@H](O)[C@H]7O)[C@H]6O[C@@H]6O[C@@H](C)[C@H](O)[C@@H](O)[C@H]6O)C(C)(C)[C@@H]5CC[C@@]4(C)[C@@]34CO[C@@]2(C4)O1 | -11
